Published values from different studies.
Compare with care: the assays were run in different laboratories. Values joined by “and” are separate records of one study, mostly repeats; a detail may differ. ± marks the error that the study gave.
AGER: Advanced glycosylation end product-specific receptor (AGER, Homo sapiens, UniProt Q15109)
Sequence of UniProt Q15109 (whole entry, looked up): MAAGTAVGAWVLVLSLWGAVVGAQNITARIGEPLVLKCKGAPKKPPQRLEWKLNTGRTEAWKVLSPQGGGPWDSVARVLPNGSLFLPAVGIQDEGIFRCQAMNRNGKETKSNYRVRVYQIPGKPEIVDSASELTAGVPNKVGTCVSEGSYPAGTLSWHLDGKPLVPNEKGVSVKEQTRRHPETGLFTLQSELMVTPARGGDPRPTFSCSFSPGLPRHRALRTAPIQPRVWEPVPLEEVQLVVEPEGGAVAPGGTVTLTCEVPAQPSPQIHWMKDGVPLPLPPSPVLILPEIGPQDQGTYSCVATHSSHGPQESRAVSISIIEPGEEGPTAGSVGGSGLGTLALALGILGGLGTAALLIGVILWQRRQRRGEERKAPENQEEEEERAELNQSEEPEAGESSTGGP
Sequence of UniProt P03372 (whole entry, looked up): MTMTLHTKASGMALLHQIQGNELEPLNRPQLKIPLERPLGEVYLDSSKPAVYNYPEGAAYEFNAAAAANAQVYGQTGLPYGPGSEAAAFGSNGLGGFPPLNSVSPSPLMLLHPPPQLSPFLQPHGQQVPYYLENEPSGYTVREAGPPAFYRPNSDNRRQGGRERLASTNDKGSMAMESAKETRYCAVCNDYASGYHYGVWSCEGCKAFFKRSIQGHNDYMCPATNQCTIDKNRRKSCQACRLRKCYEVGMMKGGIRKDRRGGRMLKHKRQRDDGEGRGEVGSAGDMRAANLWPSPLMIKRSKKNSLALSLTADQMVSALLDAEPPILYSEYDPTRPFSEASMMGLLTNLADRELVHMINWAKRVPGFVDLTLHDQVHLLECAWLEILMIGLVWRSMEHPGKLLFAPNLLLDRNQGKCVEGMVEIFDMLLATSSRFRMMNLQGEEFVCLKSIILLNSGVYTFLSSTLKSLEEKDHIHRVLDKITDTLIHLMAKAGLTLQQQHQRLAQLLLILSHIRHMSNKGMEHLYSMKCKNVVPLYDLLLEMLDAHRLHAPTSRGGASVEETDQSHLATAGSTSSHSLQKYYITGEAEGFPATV
Sequence of UniProt Q9Y2I7 (whole entry, looked up): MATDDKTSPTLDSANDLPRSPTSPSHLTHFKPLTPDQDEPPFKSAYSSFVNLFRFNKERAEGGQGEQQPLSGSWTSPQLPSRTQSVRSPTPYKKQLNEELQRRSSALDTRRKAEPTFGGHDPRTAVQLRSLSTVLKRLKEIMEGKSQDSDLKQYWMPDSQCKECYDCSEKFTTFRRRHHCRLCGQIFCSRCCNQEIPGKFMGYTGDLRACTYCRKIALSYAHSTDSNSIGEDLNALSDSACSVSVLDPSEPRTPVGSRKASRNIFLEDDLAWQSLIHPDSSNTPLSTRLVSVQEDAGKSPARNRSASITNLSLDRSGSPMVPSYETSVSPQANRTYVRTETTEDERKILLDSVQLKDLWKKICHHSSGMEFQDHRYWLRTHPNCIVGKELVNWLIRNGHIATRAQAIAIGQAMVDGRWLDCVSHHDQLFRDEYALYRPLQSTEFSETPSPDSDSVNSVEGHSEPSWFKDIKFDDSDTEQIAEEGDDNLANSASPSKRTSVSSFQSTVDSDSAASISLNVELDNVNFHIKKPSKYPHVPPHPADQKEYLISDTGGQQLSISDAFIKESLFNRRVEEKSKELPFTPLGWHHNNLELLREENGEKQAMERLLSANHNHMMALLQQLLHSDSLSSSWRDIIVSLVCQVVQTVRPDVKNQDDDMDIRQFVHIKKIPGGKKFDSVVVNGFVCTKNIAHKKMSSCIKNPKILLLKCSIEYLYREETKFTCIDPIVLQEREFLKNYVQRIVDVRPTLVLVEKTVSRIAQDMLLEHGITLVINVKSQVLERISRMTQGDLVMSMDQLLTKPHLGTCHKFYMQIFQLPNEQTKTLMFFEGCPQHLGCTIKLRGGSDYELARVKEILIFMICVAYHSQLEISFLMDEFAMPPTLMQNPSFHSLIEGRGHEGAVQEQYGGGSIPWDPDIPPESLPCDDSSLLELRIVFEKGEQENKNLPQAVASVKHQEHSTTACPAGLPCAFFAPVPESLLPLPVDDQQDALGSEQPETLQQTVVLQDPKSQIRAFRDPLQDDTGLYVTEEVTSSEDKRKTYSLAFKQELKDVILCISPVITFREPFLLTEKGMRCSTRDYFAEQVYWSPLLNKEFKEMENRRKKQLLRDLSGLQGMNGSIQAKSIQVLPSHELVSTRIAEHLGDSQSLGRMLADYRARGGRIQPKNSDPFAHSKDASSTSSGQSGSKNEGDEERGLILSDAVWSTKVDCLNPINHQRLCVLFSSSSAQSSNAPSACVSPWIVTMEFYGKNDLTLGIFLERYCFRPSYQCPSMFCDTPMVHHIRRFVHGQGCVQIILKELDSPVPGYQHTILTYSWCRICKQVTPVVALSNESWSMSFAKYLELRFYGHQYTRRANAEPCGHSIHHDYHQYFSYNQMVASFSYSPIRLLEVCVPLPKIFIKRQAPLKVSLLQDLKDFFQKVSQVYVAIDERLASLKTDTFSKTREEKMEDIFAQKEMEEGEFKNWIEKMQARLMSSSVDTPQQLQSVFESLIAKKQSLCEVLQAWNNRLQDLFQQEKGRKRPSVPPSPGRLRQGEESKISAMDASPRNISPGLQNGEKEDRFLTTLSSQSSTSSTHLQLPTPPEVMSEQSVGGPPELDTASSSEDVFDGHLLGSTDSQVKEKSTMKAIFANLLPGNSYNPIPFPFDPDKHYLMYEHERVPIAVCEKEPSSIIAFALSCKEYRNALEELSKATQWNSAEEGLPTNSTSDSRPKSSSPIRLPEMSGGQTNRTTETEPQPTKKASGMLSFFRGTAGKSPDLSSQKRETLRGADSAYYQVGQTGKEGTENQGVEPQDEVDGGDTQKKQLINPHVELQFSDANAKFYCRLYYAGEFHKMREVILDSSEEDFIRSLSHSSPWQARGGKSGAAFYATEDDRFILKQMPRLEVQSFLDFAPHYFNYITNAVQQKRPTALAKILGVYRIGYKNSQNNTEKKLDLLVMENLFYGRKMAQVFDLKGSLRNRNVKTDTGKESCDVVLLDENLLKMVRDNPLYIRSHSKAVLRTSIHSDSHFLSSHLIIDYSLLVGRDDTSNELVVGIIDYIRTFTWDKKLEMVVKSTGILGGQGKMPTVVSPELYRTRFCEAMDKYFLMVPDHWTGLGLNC
Sequence of UniProt Q10QA5 (whole entry, looked up): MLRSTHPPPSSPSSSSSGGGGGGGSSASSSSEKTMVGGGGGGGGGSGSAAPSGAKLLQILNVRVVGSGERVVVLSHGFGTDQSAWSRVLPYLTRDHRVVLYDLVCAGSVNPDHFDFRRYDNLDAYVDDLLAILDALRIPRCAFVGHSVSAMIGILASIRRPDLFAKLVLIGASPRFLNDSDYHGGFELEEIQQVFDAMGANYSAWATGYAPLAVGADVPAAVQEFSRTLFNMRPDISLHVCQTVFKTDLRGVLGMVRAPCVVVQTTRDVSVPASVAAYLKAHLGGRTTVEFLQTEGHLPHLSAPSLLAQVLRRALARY
Sequence of UniProt P50552 (whole entry, looked up): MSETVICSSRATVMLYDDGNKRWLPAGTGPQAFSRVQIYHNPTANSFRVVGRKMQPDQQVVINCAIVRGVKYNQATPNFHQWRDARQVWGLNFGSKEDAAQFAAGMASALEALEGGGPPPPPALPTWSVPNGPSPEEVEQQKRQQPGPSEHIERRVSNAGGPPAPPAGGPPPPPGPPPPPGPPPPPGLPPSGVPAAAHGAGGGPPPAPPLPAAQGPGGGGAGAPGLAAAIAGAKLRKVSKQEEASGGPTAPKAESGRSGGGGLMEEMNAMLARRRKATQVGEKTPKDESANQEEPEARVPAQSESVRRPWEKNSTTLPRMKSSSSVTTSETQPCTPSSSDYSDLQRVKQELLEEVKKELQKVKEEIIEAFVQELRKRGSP
Sequence of UniProt P10635 (whole entry, looked up): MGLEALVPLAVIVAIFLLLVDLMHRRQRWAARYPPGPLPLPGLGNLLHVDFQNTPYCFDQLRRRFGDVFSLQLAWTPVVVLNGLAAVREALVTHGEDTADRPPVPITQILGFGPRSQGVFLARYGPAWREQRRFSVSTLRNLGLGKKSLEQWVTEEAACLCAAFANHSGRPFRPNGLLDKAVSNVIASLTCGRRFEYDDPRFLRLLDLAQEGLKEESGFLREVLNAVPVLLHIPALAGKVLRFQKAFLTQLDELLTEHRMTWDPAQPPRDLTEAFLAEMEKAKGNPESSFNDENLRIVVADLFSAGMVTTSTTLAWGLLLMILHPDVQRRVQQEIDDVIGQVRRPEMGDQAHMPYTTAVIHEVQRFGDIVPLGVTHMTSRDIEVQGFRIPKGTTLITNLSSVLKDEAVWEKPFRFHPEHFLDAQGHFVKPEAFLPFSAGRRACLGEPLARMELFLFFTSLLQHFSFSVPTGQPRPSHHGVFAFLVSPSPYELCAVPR
Sequence of UniProt Q6L545 (whole entry, looked up): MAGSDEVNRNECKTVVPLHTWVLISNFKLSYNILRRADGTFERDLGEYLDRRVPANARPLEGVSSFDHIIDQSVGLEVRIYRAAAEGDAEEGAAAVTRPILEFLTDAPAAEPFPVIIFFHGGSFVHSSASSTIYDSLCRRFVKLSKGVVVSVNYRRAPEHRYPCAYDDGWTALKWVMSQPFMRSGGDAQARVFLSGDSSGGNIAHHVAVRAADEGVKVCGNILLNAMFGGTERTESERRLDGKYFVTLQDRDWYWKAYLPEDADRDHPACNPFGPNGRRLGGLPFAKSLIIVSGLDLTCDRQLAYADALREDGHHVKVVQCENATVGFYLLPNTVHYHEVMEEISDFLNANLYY

For `CC[C@@H]([C@H](C)c1ccc(O)cc1)[C@H](CC)c1ccc(O)cc1`, the EC50 was 0.0784 µM (Estrogen receptor (ESR1, Homo sapiens, UniProt P03372); reporter gene, luciferase reporter (3xERE); 293T; 24 h).
For `Cc1ncsc1-c1ccc(C(C)NC(=O)C2CC(O)CN2C(=O)C(NC(=O)CCCCCCCCCCN2CCCC(Nc3ncc(Cl)c(Nc4ccccc4S(=O)(=O)C(C)C)n3)C2)C(C)(C)C)cc1` (stereo not drawn), “log2 fold change” read -1.05 (22Rv1; RNA-seq, measured: SUV39H1 mRNA; concentration not given; relative to: DMSO).
The Kd of `CC[C@H](C)[C@@H]1NC(=O)[C@H](CC(=O)N[C@@H]2O[C@H](CO)[C@@H](O[C@@H]3O[C@H](CO)[C@@H](O[C@@H]4O[C@H](CO[C@H]5O[C@H](CO[C@H]6O[C@H](CO)[C@@H](O)[C@H](O)[C@@H]6O)[C@@H](O)[C@H](O[C@H]6O[C@H](CO)[C@@H](O)[C@H](O)[C@@H]6O)[C@@H]5O)[C@@H](O)[C@H](O[C@H]5O[C@H](CO)[C@@H](O)[C@H](O)[C@@H]5O)[C@@H]4O)[C@H](O)[C@H]3NC(C)=O)[C@H](O)[C@H]2NC(C)=O)NC(=O)[C@H](Cc2ccccc2)NC(=O)[C@H](CO)NC(=O)[C@H](CO)NC(=O)[C@H](CC(=O)N[C@@H]2O[C@H](CO)[C@@H](O[C@@H]3O[C@H](CO)[C@@H](O[C@@H]4O[C@H](CO[C@H]5O[C@H](CO)[C@@H](O)[C@H](O)[C@@H]5O[C@@H]5O[C@H](CO)[C@@H](O[C@@H]6O[C@H](CO[C@]7(C(=O)O)C[C@H](O)[C@@H](NC(C)=O)[C@H]([C@H](O)[C@H](O)CO)O7)[C@H](O)[C@H](O)[C@H]6O)[C@H](O)[C@H]5NC(C)=O)[C@@H](O)[C@H](O[C@H]5O[C@H](CO)[C@@H](O)[C@H](O)[C@@H]5O[C@@H]5O[C@H](CO)[C@@H](O[C@@H]6O[C@H](CO[C@]7(C(=O)O)C[C@H](O)[C@@H](NC(C)=O)[C@H]([C@H](O)[C@H](O)CO)O7)[C@H](O)[C@H](O)[C@H]6O)[C@H](O)[C@H]5NC(C)=O)[C@@H]4O)[C@H](O)[C@H]3NC(C)=O)[C@H](O)[C@H]2NC(C)=O)NC(=O)[C@@H](NC(=O)[C@@H](NC(=O)CCCCCNC(=O)CCCC[C@@H]2SC[C@@H]3NC(=O)N[C@@H]32)C(C)C)CSSC[C@@H](C(=O)N[C@@H](Cc2ccc(O)cc2)C(N)=O)NC(=O)[C@H](CC(C)C)NC(=O)[C@H](C)NC(=O)[C@H](Cc2ccc(O)cc2)NC(=O)[C@H](C)NC(=O)[C@H](CCCCN)NC(=O)[C@H](CCC(N)=O)NC(=O)[C@H](CCCCN)NC(=O)[C@H](CCCCN)NC(=O)[C@H](CC(=O)O)NC(=O)[C@H](CCCNC(=N)N)NC(=O)[C@H](CC(C)C)NC(=O)[C@H](CCC(=O)O)NC(=O)[C@H]([C@@H](C)O)NC(=O)[C@H]([C@@H](C)O)NC1=O` is reported as 130 ± 2 µM (PG16 Fab (human); binding, SPR; 25 °C, immobilized V1V2 glycopeptide).
Under “percent of control”, `C=CC(=O)Nc1cccc(Cn2ncc3cnc(Nc4cnn(CCOC)c4)nc32)c1` is recorded as 29% (PIP5K2C human; binding, KINOMEscan; 100 nM; lower = stronger binding).
The Kd of `Cn1ncc2cc(-c3cncc(Cl)c3N3CCC4(CCNC4=O)CC3)ccc21` is reported as 0.407 µM (PIKFYVE (Homo sapiens, UniProt Q9Y2I7); SILAC displacement; LS174T-L5 cell lysate).
With `NCc1ccc(Cl)cc1` the Kd was 0.75 µM (Maoa (Rattus norvegicus, UniProt P21396); pH 7.5, deprotonated amine, pKa-corrected).
`CNS(=O)(=O)Nc1nccc(Cc2c(C)c3ccc(Oc4ncccc4F)cc3oc2=O)c1F` gave an IC50 of 0.501 µM (OUMS-23; cell viability; 7 days).
With `Cc1cc(C)c(S(=O)(=O)Nc2cccc(C(F)(F)F)c2)c(C)c1` the Kd was 57 µM (PLCG2 (Homo sapiens, UniProt P16885); binding, surface plasmon resonance; 25 °C, immobilised residues 1-1195).
`COC1CN([C@H]2CC[C@H]([C@@]3(C)Oc4c(Cl)cc(C(=O)NCc5c(SC)cc(C)[nH]c5=O)c(C)c4O3)CC2)C1`: “log2 fold change” 1.44 (RNA-seq, measured: CLDN4 mouse homolog; mouse, HT-1376 xenograft, whole blood; dose not given; relative to: vehicle).
With `CC(=O)NC(Cc1ccccc1Cl)C(=O)N1CCCC12C=CC1CCC(C(=O)N3CCC4C=CC5C(C)CC(C(=O)O)N5C(=O)C43)N1C2=O` (stereo not drawn) the Kd was 0.28 µM (VASP (Homo sapiens, UniProt P50552); binding, fluorescence).
For `CN1CCCNC(=O)c2cccc(c2)C(=O)NCCCN(C)CCCNc2cccc3c2C(=O)c2cccc(c2C3=O)NCCC1`, “log2 fold change” read 0.893 (SAS; RNA-Seq, measured: ZFP41 mRNA; 1 µM, 6 h; relative to: untreated cells).
`Cc1cccc2c1N(C(=O)n1ccnn1)CC2` has a Kd of 23.8 µM (D14 (Oryza sativa, UniProt Q10QA5); ITC; mean of 3 runs).
`NCCCC[C@H](NC(=O)[C@H](C/C=C\C[C@H](NC(=O)[C@@H]1CCCN1)C(=O)N[C@@H](CCCCN)C(=O)NCCCN)NC(=O)[C@@H]1CCCN1)C(=O)NCCCN` has a Kd of 21.2 µM ((CCUG)10 RNA; SPR).
For `CCC1C=CC2CCN(C(=O)C3CCC4C=CC5(CCCN5C(=O)C(Cc5ccccc5Cl)NC(C)=O)C(=O)N43)C2C(=O)N1CC(=O)OC` (stereo not drawn), the Kd was 2400 µM (Tyrosine-protein kinase Fyn, SH3 domain (FYN, Homo sapiens, UniProt P06241); binding).
With `Cn1c(=O)n(C2CCC(=O)NC2=O)c2ccc(C3CCN(CC(=O)Nc4cccc(CS(=O)(=O)N5CC[C@H](Nc6cccc(-c7sc(C(=O)O)c(OCC(=O)O)c7Cl)c6)CC5(C)C)c4)CC3)cc21` (stereo partly drawn) the Kd was 0.052 µM (PTPN2 (Homo sapiens, UniProt P17706); binding, BLI).
`O=C(Nc1ccc(Cl)cc1)Nc1ccc(C2=NNC(c3ccc(NC(=O)Nc4ccc(Cl)cc4)cc3)C2)cc1` (stereo not drawn) gave a Kd of 17.1 ± 2 µM (AGER; binding).
For `CC(C)C[C@H](NC(=O)[C@H](Cc1ccc(O)cc1)NC(=O)[C@@H](CCCNC(=N)N)NC(=O)[C@@H](CO)NC(=O)[C@H](Cc1ccccc1)NC(=O)[C@H](CC1CCCCC1)NC(=O)[C@H](CC(=O)O)NC(=O)CN1CCN(CC(=O)O)CCN(CC(=O)O)CCN(CC(=O)O)CC1)C(=O)N[C@@H](Cc1c[nH]c2ccccc12)C(=O)N[C@@H](CO)C(=O)O` [copper-64 labelled], the activity concentration was 3880 Bq/mL and 1440 Bq/mL and 5630 Bq/mL (human, gall bladder; concentration not given, 3 h).
For `Nc1ncc(-c2cc(-c3cnn(CC(F)(F)F)c3)ncc2F)nc1C(=O)NC1CNCC(F)C1` (stereo not drawn), the remaining binding was 53% (PIM3; KINOMEscan; 1 µM; relative to: DMSO control).
For `CCc1nc2cc3ccccc3cc2cc1C(=O)N1CCC[C@H]1C(=O)N[C@@H](CCC/C=C\CCC[C@H](NC(=O)[C@@H]1CCCN1C(=O)c1cc2cc3ccccc3cc2nc1CC)C(=O)N[C@@H](CCCCN)C(=O)NCCCN)C(=O)N[C@@H](CCCCN)C(=O)NCCCN`, the Kd was 0.265 µM ((CCUG)10 RNA; SPR).
For `COc1ccc(OC)c(-n2nnc(C(=O)Nc3cc(OCCOCCOCCOCCNC(=O)CCc4ccc5n4[B-](F)(F)[N+]4=C(C)C=C(C)C4=C5)cc(C(C)(C)C)c3)c2C)c1`, the Kd was 0.048 µM (NR1I2 (Homo sapiens, UniProt O75469); binding).
For `CCc1nc2cc3ccccc3cc2cc1C(=O)N1CCC[C@H]1C(=O)N[C@@H](C/C=C/C[C@H](NC(=O)[C@@H]1CCCN1C(=O)c1cc2cc3ccccc3cc2nc1CC)C(=O)N[C@@H](CCCCN)C(=O)NCCCN)C(=O)N[C@@H](CCCCN)C(=O)NCCCN`, the Kd was 0.013 µM ((CCUG)10 RNA; SPR).
`O=C(Nc1ccc(Cl)cc1)Nc1ccc(C2=NNC(c3ccc(Cl)cc3)C2)cc1` (stereo not drawn) has a Kd of 15.1 ± 2.4 µM (AGER; binding).
The Kd of `CCOC(=O)c1ccc2n[nH]cc2c1` is reported as 57.1 µM (MAP2K1 (Homo sapiens, UniProt Q02750); binding, microscale thermophoresis; 25 °C).
The Kd of `Cc1c[nH]c2nccc(-c3ccc(C(=O)N[C@@H]4c5c(F)cc(C(F)F)cc5C[C@@H]4O)cn3)c12` is reported as 0.85 µM (RET (Homo sapiens, UniProt P07949); binding, competition with immobilised ligand).
The Kd of `O=C(Nc1ccc(Cl)cc1)Nc1ccc(C2CC(c3ccc(Cl)cc3)=NN2C(=O)Nc2ccc(Cl)cc2)cc1` (stereo not drawn) is reported as 10.5 ± 1.7 µM (AGER; binding).
`CCCC[C@@H]1NC(=O)[C@H](Cc2ccc(O)cc2)NC(=O)[C@@H]2CCCN2C(=O)[C@H](CC(=O)O)NC(=O)[C@H](C)NC(=O)[C@H](Cc2ccccc2)NC(=O)[C@@H]2CSCCC(=O)N3CN(CN(C3)C(=O)CCSC[C@@H](C(=O)N[C@@H](C)C(N)=O)NC1=O)C(=O)CCSC[C@H](NC(C)=O)C(=O)N[C@@H](CC(C)(C)C)C(=O)N1CCC[C@H]1C(=O)N[C@@H](CCC(=O)O)C(=O)N[C@H](CCCCNC(=O)CCc1cn(CCOCCOCCOCCN(CCOCCOCCOCCC(=O)N[C@H]3CSCCC(=O)N4CN5CN(C4)C(=O)CCSC[C@H](NC(=O)[C@@H](CC(=O)O)NC(=O)[C@H](Cc4cccc6ccccc46)NC(=O)[C@@H]4CCCN4C3=O)C(=O)N[C@@H](CCSC)C(=O)N[C@@H](CCCCNC(=N)N)C(=O)N[C@@H](CC(=O)O)C(=O)N[C@@H](Cc3c[nH]c4ccccc34)C(=O)N[C@@H](CO)C(=O)N[C@@H]([C@@H](C)O)C(=O)N3CCC[C@H]3C(=O)N3C[C@H](O)C[C@H]3C(=O)N[C@@H](Cc3c[nH]c4ccccc34)C(=O)N[C@H](C(N)=O)CSCCC5=O)CCOCCOCCOCCn3cc(CCC(=O)NCCCC[C@H]4NC(=O)[C@H](CCC(=O)O)NC(=O)[C@@H]5CCCN5C(=O)[C@H](CC(C)(C)C)NC(=O)[C@@H](NC(C)=O)CSCCC(=O)N5CN6CN(C5)C(=O)CCSC[C@H](NC(=O)[C@H](Cc5ccc(O)cc5)NC(=O)[C@@H]5CCCN5C4=O)C(=O)N[C@@H](Cc4ccccc4)C(=O)N[C@@H](C)C(=O)N[C@@H](CC(=O)O)C(=O)N4CCC[C@H]4C(=O)N[C@@H](Cc4ccc(O)cc4)C(=O)N[C@@H](CCCC)C(=O)N[C@H](C(=O)N[C@@H](C)C(N)=O)CSCCC6=O)nn3)nn1)C(=O)N1CCC[C@H]1C(=O)N[C@@H](Cc1ccc(O)cc1)C(=O)N2` gave a Kd of over 0.2 µM (Cell adhesion molecule 1 (CADM1, Homo sapiens, UniProt Q9BY67); SPR).
`CCc1nc2cc3ccccc3cc2cc1C(=O)N[C@@H](CCCCN)C(=O)N[C@@H](C/C=C/C[C@H](NC(=O)[C@H](CCCCN)NC(=O)c1cc2cc3ccccc3cc2nc1CC)C(=O)N1CCC[C@H]1C(=O)NCCCN)C(=O)N1CCC[C@H]1C(=O)NCCCN` has a Kd of 0.124 µM ((CCUG)10 RNA; SPR).
For `C[C@@]12C(=O)O[C@]3(CC[C@@H]1O)[C@@H]1CC[C@@H]4C[C@]1(C[C@]41CO1)[C@@H](C(=O)O)[C@@H]32`, the Kd was 1.35 µM (GID1 (Oryza sativa, UniProt Q6L545)).
`C=CC(=O)N1C[C@H](C)N(c2nc(OC[C@@]34CCCN3C[C@H](F)C4)nc3c(F)c(-c4ccc(F)c5sc(N)c(C#N)c45)c(C(F)(F)F)cc23)C[C@H]1C` has a Kd of 0.016 ± 0.0038 µM (GTPase KRas, GDP-bound (KRAS, Homo sapiens, UniProt P01116); microscale thermophoresis).
`CNC(=O)C1CCCN(C(=O)C2CC3CCC2N3C(=O)[C@@H]2C[C@@H](O)CN2C(=O)NCc2cccc(Cl)c2F)C1` (mixture of isomers) has a remaining activity of 119% (Cytochrome P450 2D6 (CYP2D6, Homo sapiens, UniProt P10635); enzyme activity, inhibitor, time-dependent inhibition; 1.85 µM, preincubated with NADPH; relative to: negative control).

Excerpt of the above:
`NCCCC[C@H](NC(=O)[C@H](C/C=C\C[C@H](NC(=O)[C@@H]1CCCN1)C(=O)N[C@@H](CCCCN)C(=O)NCCCN)NC(=O)[C@@H]1CCCN1)C(=O)NCCCN` has a Kd of 21.2 µM ((CCUG)10 RNA; SPR).
For `Cc1ncsc1-c1ccc(C(C)NC(=O)C2CC(O)CN2C(=O)C(NC(=O)CCCCCCCCCCN2CCCC(Nc3ncc(Cl)c(Nc4ccccc4S(=O)(=O)C(C)C)n3)C2)C(C)(C)C)cc1` (stereo not drawn), “log2 fold change” read -1.05 (22Rv1; RNA-seq, measured: SUV39H1 mRNA; concentration not given; relative to: DMSO).
